Measured values pooled from the literature.
Chain of UniProt P31152 (whole entry, looked up): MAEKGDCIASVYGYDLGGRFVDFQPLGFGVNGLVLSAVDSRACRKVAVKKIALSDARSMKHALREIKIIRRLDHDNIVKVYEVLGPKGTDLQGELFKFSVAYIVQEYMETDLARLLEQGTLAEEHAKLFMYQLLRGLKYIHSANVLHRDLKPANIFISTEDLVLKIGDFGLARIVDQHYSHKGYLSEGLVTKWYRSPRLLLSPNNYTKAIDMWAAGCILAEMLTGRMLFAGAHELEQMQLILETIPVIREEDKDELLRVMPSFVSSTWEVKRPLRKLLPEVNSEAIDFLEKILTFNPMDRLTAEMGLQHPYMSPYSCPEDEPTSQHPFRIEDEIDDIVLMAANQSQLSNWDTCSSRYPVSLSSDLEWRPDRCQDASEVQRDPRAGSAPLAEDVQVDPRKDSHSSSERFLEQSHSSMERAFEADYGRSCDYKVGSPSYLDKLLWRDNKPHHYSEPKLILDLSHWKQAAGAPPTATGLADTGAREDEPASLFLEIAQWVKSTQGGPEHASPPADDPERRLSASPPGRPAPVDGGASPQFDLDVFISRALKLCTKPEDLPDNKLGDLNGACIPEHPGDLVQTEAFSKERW
Chain of UniProt Q99759 (whole entry, looked up): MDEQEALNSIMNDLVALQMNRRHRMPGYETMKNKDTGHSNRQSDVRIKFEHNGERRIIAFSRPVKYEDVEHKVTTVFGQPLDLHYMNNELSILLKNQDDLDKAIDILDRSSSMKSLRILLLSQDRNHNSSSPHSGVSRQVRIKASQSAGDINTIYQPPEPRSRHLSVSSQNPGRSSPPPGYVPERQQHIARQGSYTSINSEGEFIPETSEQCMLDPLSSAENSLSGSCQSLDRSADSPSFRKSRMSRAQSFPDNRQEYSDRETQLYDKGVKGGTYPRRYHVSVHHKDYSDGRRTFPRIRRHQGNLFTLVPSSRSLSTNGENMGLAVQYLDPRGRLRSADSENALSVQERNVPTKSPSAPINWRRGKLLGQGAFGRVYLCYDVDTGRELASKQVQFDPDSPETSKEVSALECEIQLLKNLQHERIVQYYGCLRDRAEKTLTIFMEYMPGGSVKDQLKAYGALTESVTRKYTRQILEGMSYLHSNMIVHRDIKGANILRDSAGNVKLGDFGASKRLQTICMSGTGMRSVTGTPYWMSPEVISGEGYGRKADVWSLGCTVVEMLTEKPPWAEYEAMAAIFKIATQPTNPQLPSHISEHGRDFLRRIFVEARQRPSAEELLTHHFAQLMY
Chain of UniProt Q8N752 (whole entry, looked up): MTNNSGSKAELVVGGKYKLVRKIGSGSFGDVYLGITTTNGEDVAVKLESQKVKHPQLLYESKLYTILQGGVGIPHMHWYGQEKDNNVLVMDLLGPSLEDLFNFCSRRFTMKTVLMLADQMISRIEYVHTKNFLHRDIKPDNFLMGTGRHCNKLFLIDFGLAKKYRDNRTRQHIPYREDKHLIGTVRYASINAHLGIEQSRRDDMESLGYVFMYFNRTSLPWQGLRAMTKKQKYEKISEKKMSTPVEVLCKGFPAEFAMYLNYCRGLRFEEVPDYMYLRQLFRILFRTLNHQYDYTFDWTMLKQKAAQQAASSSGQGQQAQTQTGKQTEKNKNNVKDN
Chain of UniProt Q8TF76 (whole entry, looked up): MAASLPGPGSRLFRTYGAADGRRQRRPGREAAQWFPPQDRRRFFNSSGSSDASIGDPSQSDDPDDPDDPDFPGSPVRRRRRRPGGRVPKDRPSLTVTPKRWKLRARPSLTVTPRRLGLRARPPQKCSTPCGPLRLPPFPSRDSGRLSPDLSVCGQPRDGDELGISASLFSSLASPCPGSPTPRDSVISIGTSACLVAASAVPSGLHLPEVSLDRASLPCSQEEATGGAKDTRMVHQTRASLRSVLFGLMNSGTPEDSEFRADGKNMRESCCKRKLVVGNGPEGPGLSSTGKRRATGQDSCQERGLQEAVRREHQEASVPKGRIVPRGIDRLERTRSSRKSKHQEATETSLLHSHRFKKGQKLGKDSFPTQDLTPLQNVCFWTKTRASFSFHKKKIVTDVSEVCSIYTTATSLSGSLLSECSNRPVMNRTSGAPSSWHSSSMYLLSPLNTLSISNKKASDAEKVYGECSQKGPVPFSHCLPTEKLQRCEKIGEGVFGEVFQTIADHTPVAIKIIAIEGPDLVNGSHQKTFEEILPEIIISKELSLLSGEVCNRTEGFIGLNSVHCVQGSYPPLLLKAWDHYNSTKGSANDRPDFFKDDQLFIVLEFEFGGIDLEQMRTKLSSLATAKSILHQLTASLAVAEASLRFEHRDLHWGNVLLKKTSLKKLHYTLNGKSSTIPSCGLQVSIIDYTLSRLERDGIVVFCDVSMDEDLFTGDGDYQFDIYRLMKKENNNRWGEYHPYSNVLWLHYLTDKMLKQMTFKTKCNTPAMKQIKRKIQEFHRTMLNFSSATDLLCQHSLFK
Chain of UniProt P78368 (whole entry, looked up): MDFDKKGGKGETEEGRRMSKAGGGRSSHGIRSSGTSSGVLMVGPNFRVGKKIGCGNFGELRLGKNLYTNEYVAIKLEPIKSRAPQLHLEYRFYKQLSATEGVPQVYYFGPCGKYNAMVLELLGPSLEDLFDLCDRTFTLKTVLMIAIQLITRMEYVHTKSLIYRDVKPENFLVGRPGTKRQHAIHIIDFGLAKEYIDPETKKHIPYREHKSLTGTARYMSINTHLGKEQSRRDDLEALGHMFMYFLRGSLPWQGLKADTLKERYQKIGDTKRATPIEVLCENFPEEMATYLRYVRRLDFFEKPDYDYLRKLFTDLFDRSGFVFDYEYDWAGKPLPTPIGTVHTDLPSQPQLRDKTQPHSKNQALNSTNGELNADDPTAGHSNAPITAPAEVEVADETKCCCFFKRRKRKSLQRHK

CN(Cc1ccc(C(C)(C)C)cc1)Cc1cccc2ccccc12  MIC (Trichophyton rubrum; microbial growth, broth dilution; ATCC28188; 6 days): 60 µg/mL
COc1cc(-c2cncc3c2CN(C)Cc2cc(N4CCNCC4)ccc2-3)cc(OC)c1OC  remaining activity (HASPIN (Homo sapiens, UniProt Q8TF76); enzyme activity, inhibitor; 1 µM): 103%
CN(C)c1cc(NC(=O)CNC(C)(C)C)c(O)c2c1C[C@H]1C[C@H]3[C@H](N(C)C)C(O)=C(C(N)=O)C(=O)[C@@]3(O)C(O)=C1C2=O  MIC (Mycobacterium tuberculosis; microbial growth, broth dilution; H37RV; 7 days, pH 7.4): 0.2 µg/mL
CNC(C)C1CCC(N)C(OC2C(N)CC(N)C(OC3OCC(C)(O)C(NC)C3O)C2O)O1 (stereo not drawn)  MIC (Pseudomonas aeruginosa; microbial growth; 10145): 1.56 to 3.2 µM
NC[C@H]1O[C@H](O[C@H]2[C@H](O)[C@@H](O[C@H]3O[C@H](CO)[C@@H](O)[C@H](N)[C@H]3O)[C@H](N)C[C@@H]2N)[C@H](N)C[C@@H]1O  MIC (Pseudomonas aeruginosa; microbial growth, broth dilution; clinical isolate): 9.6 µM
Cc1nc(NC(=O)N2CCC[C@H]2C(N)=O)sc1-c1csc(C(C)(C)C)n1  MIC (Staphylococcus aureus; microbial growth; NCTC8325): > 30 µM
Cc1cccc(N(O)N=Nc2ccc(S(=O)(=O)Nc3nccs3)cc2)c1  inhibition (ABTS scavenging; 180 µg/mL): 64.2%
OC(Cn1cncn1)(Cn1cncn1)c1ccc(F)cc1F  MIC (Candida albicans; microbial growth; SC5314): 0.5 µg/mL
Cc1ccc(NC(=O)Nc2cc(C(C)(C)C)on2)cc1  MIC (Staphylococcus aureus; microbial growth; NCTC8325): > 100 µM
C[C@H]1COC2=C1C(=O)C(=O)c1c2ccc2c1CCCC2(C)C  MIC (Cutibacterium acnes; microbial growth; 48 h): 250 µM
C=CC(=O)N1CCC(COCC(=O)N2CCN(c3nc(-c4cnc(N)nc4C(F)F)nc(N4CCOC[C@@H]4C)n3)CC2)CC1  remaining binding (CSNK1A1L (Homo sapiens, UniProt Q8N752); binding, competition with immobilised ligand; 1 µM): 97%
CCON=C1C=CC(=C(C#N)c2ccccc2)C=C1  MIC (Candida tropicalis; microbial growth, broth dilution; ATCC13803; 48 h): 256 µg/mL
C[C@@H](O)[C@H]1C(=O)N2C(C(=O)O)=C(S[C@@H]3CN[C@H](C(=O)N(C)C)C3)[C@H](C)[C@H]12  MIC (Klebsiella pneumoniae; microbial growth, broth dilution; ATCC13883; 20 h): < 0.5 µg/mL
Cc1[nH]c(C(=O)Nc2ccc(C(=O)NCc3n[nH]c(=O)o3)cc2N2CCNCC2)c(Cl)c1Cl.Cl  MIC (Klebsiella pneumoniae; microbial growth, broth dilution; ATCC700603): > 32 µg/mL
CN(C)c1cc(NC(=O)Cc2cccnc2)c(O)c2c1C[C@H]1C[C@H]3[C@H](N(C)C)C(O)=C(C(N)=O)C(=O)[C@@]3(O)C(O)=C1C2=O  MIC (Mycobacterium tuberculosis; microbial growth, broth dilution; H37RV; 7 days, pH 7.4): 0.8 µg/mL
Nc1nc(Nc2ccc(S(N)(=O)=O)cc2)nn1C(=O)c1c(F)cccc1F  MIC (Staphylococcus aureus; microbial growth; NCTC8325): > 30 µM
CN[C@H](CC(C)C)C(=O)N[C@H]1C(=O)N[C@@H](CC(N)=O)C(=O)N[C@H]2C(=O)N[C@H]3C(=O)N[C@H](C(=O)N[C@H](C(=O)O)c4cc(O)cc(O)c4-c4cc3ccc4O)[C@H](O)c3ccc(c(Cl)c3)Oc3cc2cc(c3O[C@@H]2O[C@H](CO)[C@@H](O)[C@H](O)[C@H]2O[C@H]2C[C@](C)(N)[C@H](O)[C@H](C)O2)Oc2ccc(cc2Cl)[C@H]1O  MIC (Streptococcus pneumoniae; microbial growth; PRSP): 1 µg/mL
Cc1cc([C@@H](C)Nc2ccccc2C(=O)O)c2nc(N3CCC(F)(F)CC3)c(C#N)c(=O)n2c1  remaining binding (CSNK1G2 (Homo sapiens, UniProt P78368); binding, competition with immobilised ligand; 10 µM): 100%
CNc1ncc2c(/C=C/C(=O)N3CCC(OC)CC3)nn(Cc3cccc(C(F)(F)F)c3)c2n1  remaining activity (MAP3K3 (Homo sapiens, UniProt Q99759); enzyme activity, inhibitor, radiometric; 1 µM): 102%
CN(C)c1cc(NC(=O)Cc2ccncc2)c(O)c2c1C[C@H]1C[C@H]3[C@H](N(C)C)C(O)=C(C(N)=O)C(=O)[C@@]3(O)C(O)=C1C2=O  MIC (Mycobacterium tuberculosis; microbial growth, broth dilution; H37RV; 7 days, pH 7.4): 0.8 µg/mL
COc1cc2c(Oc3ccc4[nH]c(C)cc4c3F)ncnc2cc1OCCCN1CCCC1  MIC (Staphylococcus aureus; microbial growth; NCTC8325): > 30 µM
CC(=O)N1CCN(c2ccc(OCC3COC(Cn4ccnc4)(c4ccc(Cl)cc4Cl)O3)cc2)CC1 (stereo not drawn)  MIC (Candida albicans; microbial growth, broth dilution; SP3902; 48 h): 4 µM
CCCCC(=O)Nc1ccc(-c2ccc3ncn(CCC)c(=O)c3c2)cn1  remaining binding (MAPK4 (Homo sapiens, UniProt P31152); binding, competition with immobilised ligand; 0.5 µM): 100%
CN(C)c1cc(NC(=O)c2ccccc2)c(O)c2c1C[C@H]1C[C@H]3[C@H](N(C)C)C(O)=C(C(N)=O)C(=O)[C@@]3(O)C(O)=C1C2=O  MIC (Mycobacterium tuberculosis; microbial growth, broth dilution; H37RV; 7 days, pH 7.4): 25 µg/mL
C#CCOC(=O)ON=C1C=CC(=C(C#N)c2ccccc2)C=C1  MIC (Candida tropicalis; microbial growth, broth dilution; ATCC13803; 48 h): 8 µg/mL
CC(C)(C)c1cc(NC(=O)Nc2ccccc2)no1  MIC (Staphylococcus aureus; microbial growth; NCTC8325): > 100 µM
CN(C)c1cc(NC(=O)Cc2cscn2)c(O)c2c1C[C@H]1C[C@H]3[C@H](N(C)C)C(O)=C(C(N)=O)C(=O)[C@@]3(O)C(O)=C1C2=O  MIC (Mycobacterium tuberculosis; microbial growth, broth dilution; H37RV; 7 days, pH 7.4): 0.8 µg/mL
CC(=O)NC[C@H]1CN(c2ccc(N3CCOCC3)c(F)c2)C(=O)O1  MIC (Staphylococcus aureus; microbial growth, broth dilution; ATCC6538): 2 µM
Cc1c(CN(C)C(=O)/C=C/c2cnc3c(c2)CC(CCN)C(=O)N3)oc2ccccc12.Cl (stereo not drawn)  MIC (Klebsiella pneumoniae; microbial growth, broth dilution): 32 µg/mL
C=C(NC(=O)C(=C)NC(=O)c1csc(C2=N[C@@H]3c4csc(n4)[C@H]4NC(=O)c5csc(n5)[C@H]([C@](C)(O)[C@@H](C)O)NC(=O)[C@H]5CSC(=N5)/C(=C/C)NC(=O)[C@H]([C@@H](C)O)NC(=O)c5csc(n5)[C@]3(CC2)NC(=O)[C@H](C)NC(=O)C(=C)NC(=O)[C@H](C)NC(=O)[C@H]([C@@H](C)CC)N[C@@H]2C=Cc3c([C@H](C)O)cc(nc3[C@H]2O)C(=O)O[C@@H]4C)n1)C(N)=O  MIC (Enterococcus hirae; microbial growth; ATCC10541): 0.045 µM
NC1(Cc2ccc(Cl)cc2)CCN(c2ncnc3[nH]ccc23)CC1  MIC (Staphylococcus aureus; microbial growth; NCTC8325): > 30 µM
C[C@H](NC(=O)CO/N=c1\cc2n(-c3ccc(Cl)cc3)c3ccccc3nc-2cc1Nc1ccc(Cl)cc1)C(=O)O  MIC (Neisseria gonorrhoeae; microbial growth; ATCC49226): 0.94 µM
Cc1[nH]nc2ccc(-c3cncc(OC[C@@H](N)Cc4ccccc4)c3)cc12  MIC (Staphylococcus aureus; microbial growth; NCTC8325): > 30 µM
CCCN(O)N=Nc1ccc(S(=O)(=O)Nc2cc(C)on2)cc1  inhibition (ABTS scavenging; 300 µg/mL): 61.4%
Cc1ncc(-c2ccnc(Nc3ccc(S(C)(=O)=O)cc3)n2)n1C(C)C  MIC (Staphylococcus aureus; microbial growth; NCTC8325): > 30 µM
CN(C)c1cc(NC(=O)CCc2cccnc2)c(O)c2c1C[C@H]1C[C@H]3[C@H](N(C)C)C(O)=C(C(N)=O)C(=O)[C@@]3(O)C(O)=C1C2=O  MIC (Mycobacterium tuberculosis; microbial growth, broth dilution; H37RV; 7 days, pH 7.4): 1.6 µg/mL
